# Assay results from different studies.
# Every numbered part comes from another study and shows a few of its results, in no order. Substitutions count along the parent as printed.

# Series 1
# Target: CCNA1, cyclin fold, Cln2 fusion (human)
# Technique: yeast growth competition, sequencing
# Medium: yeast
# Setting: weak parent motif
# Relative to: not given
# Direction: higher = stronger binding
# Parent: E2F1 docking peptide (human); PPVKRRLDLETDH; partner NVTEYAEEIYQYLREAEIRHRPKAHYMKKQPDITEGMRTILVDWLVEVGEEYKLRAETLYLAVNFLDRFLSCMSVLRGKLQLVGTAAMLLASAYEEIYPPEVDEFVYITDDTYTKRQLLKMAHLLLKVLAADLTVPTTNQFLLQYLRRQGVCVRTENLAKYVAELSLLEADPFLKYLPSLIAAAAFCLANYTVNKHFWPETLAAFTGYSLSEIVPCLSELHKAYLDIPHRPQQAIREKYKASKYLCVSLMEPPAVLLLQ
Substitution,normalised enrichment score
D12H,0.161
D8H,0.195
D8M,0.432
K4T,-0.0727
P2K,0.428
H13T,0.633
D8Y,0.207
V3C,0.639
E10F,0.54
V3Q,0.214
E10N,0.607
R6V,0.129
H13L,0.398
P1V,0.329
P2Q,0.736

# Series 2
# Target: RNA binding protein fox-1 homolog 2, RRM domain, GST-SBP tag (RBFOX2, Homo sapiens, UniProt O43251-10, residues 100-194)
# Technique: RNA Bind-n-Seq
# Molecule type: RNA
# Medium: in vitro
# Concentration: 365 nM
# Setting: natural RNA segment, single round, ends assumed
# Relative to: no-protein control
# Direction: higher = stronger binding
# Construct (chain): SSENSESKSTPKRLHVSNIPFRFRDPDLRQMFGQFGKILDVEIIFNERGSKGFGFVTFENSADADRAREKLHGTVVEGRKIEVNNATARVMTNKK
Oligonucleotide,RBNS enrichment (R)
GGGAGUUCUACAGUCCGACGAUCGAAGGAAGUGUUUGAAAGUCACUUUGAAAGUUAGUUUUGGGCCAGCACGGUAGCUCACCCUUGUAAUCCCAGCACUUUGGGAGGCUGAGGUGGGUAGAUUACUUGAGCCCUGGAAUUCUCGGGUGCCAA,2.92
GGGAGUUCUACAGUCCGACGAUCUUGAGCAGGGUCUGAAUUUUUUCAUUUAUUUCCUUUUUUGCCAGCAGACAGACUUGAGUCUGUAAAGACAAGCAAAUACACUGACAGAAGUUUACCAUAGUUUCUAAAAUUGGAAUUCUCGGGUGCCAA,1.27
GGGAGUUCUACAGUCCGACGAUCACAUAACUGUUCUUAAAAAGUCAAUUAUAAUUUGUAACUCACAUCCUUUGAGCUAAACUAAAUUAAAAUUACAGUAUUUAAUAAUUCUUUGGGCAUUUUUAAGAGGUCUGUGGAAUUCUCGGGUGCCAA,0.437
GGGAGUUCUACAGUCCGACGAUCGUAAUUUCAGUAUAUGUAAUGUGAUUUUAGACUGUGAAAUUUUAUCUCACAUUAAUAUCUGAAGUGCUUGUAUUAAAAGUAAAGAAAGGUAACUAAGGGAAUUUGUUUCAUGGAAUUCUCGGGUGCCAA,0.579
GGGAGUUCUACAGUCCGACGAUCAAAGAGAAUUUCUCUUAGUUUAGUUAGGUGUAAUUCAGUAGCUUUAAAUUCUCAGGUCAGAACAUAACAUUUCUCAUUUGUUAAAAGCAGCAAGAAGCCUGGUAAAACUGUGGAAUUCUCGGGUGCCAA,0.314
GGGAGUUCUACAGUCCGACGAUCUGCUGUGGGACUGUUUUUUCCUCUGACAUGCCAAAUGUAACUUCUGUAAGUGGUGGAGAGUGCUGUCCUGUGUAGGCAGCUUCUGACUGCAGUUGAAAUGUAGUCCCCUAUGGAAUUCUCGGGUGCCAA,0.257
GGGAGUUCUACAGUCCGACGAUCGUAAAUCACUGAACCUUUUUUUCAAGAAGGACAAGAAUUUUGGAGUCUGCUAUUAAUGGACCAUAUUUAUUACAGUUUUUAAAUUGUACAAUCUCUGUAUUAUAGCUAUUUGGAAUUCUCGGGUGCCAA,0.398
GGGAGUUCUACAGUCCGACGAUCAAGUCUCCUCCUCUGACUGGUUUCAGGAAAUCAAGAAGUUUGAAUCACAUACUCAUUUUACUUGAAAUUAUGUCACUAGACAACUUAUAUUUUGGAGUCUUGAGAUUGUUUGGAAUUCUCGGGUGCCAA,0.278
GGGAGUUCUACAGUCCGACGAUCACUAAAUAUAUAACAAGCUGUGUUUUCCUAAGCUGAGAUCUGUUGAAUAAUGUUUACAUUCGUCCCCCGGGGAAAUGUAUGCUCAGCCACCAUUCAAGAGAUGACUGAGAUGGAAUUCUCGGGUGCCAA,0.362
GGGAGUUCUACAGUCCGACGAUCUCUUGGGAAAACUAAAAAUUGUACAUCCAUGCUUCAGCCAUAUCAUGGGCCUAAACUAUGAGAGUUCAGAAAUAUAUAAAAGUACAAAAAUCUUCAAAGGUACUUAUUUCUGGAAUUCUCGGGUGCCAA,0.681
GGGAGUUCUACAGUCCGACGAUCAUUCCUUGCGGAAUUCUGUGGGAGAAAAGAUCCUAUCCCUUCGCAGUUGCUCCGUGGGCUCUCUAGGGGCUCUGGGCUCUGCCUGCUGCAGUGUCCUCAGUGAGCUCUCUUGGAAUUCUCGGGUGCCAA,0.278
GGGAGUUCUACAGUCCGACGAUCAACGAGGCCCAAGAAAAAAUGGAAGCUGGGGGCAGAGAGUCCAGGAGGCCCCCAUGCUGUCUGAGGGGAGGCCGGCAUAGCCCCUCCUCGACUGUCGCCUGAGCAGCUGAUGGAAUUCUCGGGUGCCAA,0.637

# Series 3
# Target: Sal-like protein 4, full length isoform A (SALL4, Homo sapiens, UniProt Q9UJQ4, residues 1-1053)
# UniProt Q9UJQ4, sequence (whole entry, looked up): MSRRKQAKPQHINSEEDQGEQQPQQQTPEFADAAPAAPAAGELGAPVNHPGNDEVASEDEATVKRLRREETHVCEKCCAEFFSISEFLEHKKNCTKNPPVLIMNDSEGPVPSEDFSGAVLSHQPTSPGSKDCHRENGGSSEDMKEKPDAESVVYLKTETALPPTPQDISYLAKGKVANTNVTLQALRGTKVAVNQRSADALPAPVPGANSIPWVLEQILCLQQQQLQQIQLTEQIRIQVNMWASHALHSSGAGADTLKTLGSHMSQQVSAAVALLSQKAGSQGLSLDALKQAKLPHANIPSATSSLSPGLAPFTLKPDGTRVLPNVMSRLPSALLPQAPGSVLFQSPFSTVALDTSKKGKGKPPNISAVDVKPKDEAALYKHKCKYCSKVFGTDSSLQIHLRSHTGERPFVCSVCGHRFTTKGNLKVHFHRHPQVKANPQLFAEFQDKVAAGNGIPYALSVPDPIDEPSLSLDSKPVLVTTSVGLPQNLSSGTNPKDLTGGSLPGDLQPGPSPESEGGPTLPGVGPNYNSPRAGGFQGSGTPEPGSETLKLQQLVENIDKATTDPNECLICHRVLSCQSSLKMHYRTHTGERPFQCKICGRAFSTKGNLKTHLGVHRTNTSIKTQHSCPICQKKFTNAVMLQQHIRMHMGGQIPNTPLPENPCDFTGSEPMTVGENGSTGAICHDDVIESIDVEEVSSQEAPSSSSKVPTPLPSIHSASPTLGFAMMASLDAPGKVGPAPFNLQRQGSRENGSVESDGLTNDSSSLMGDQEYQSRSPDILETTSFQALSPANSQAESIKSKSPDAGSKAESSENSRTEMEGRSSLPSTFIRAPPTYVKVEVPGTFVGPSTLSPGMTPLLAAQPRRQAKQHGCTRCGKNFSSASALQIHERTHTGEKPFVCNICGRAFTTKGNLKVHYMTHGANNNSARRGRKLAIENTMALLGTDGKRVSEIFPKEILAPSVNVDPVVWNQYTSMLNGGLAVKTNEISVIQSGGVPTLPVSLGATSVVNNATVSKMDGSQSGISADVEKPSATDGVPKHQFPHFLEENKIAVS
# Technique: universal PBM
# Molecule type: double-stranded DNA, one strand shown
# Medium: in vitro
# Concentration: 600 nM
# Setting: 8-mer, flanks averaged, mean of replicates
# Direction: higher = stronger binding
Oligonucleotide,E-score
GGAGTACC,-0.236
CTCTACTA,0.18
CCCGTTTC,-0.17
AACAGTAG,0.104
AGGGGTTG,-0.082
CGGAGTGA,-0.202
AATCTATC,0.113
ACTTTACA,0.13
CTTTTTTA,0.231
AAGGAGGT,-0.171
CATGCATA,0.226
CAATTGAC,0.0877
GCAAATAA,0.281
ATACGACG,0.144
CATACCAC,-0.0213
AGTCTCCC,-0.213
ATCGTCTA,-0.00749
AATTTGGC,0.0839

# Series 4
# Target: Interferon regulatory factor 7, full length, phosphomimetic (IRF7, Homo sapiens, UniProt Q92985, residues 1-503, S101K/S471D/S472D/S475D/S476D/S477D/S483D/S484D/S487D)
# UniProt Q92985, sequence (whole entry, unmodified, looked up): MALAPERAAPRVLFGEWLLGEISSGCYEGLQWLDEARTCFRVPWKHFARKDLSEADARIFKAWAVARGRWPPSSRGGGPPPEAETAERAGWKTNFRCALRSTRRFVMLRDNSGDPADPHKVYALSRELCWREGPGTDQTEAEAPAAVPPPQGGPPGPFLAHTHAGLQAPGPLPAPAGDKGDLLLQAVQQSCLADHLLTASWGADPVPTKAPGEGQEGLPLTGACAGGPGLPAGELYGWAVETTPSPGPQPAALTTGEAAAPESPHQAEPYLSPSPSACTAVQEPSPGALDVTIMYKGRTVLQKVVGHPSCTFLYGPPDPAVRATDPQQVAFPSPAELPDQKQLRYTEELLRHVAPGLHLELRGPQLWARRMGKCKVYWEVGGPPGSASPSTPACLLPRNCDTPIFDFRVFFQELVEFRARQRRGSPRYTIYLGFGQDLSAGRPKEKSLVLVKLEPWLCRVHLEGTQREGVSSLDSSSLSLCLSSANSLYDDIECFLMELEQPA
# Technique: protein-binding microarray
# Molecule type: double-stranded DNA, one strand shown
# Medium: in vitro
# Concentration: 250 nM
# Setting: 60-bp whole probe
# With: salmon DNA 0.4 mg/ml
# Relative to: random background probes
# Direction: higher = stronger binding
# Constant ends, left off below: GCCTAGCAC … GTCTTGATTCGCTTGACGCTGCTG
Oligonucleotide,log fluorescence
AAAATGATTTTTTTCATATAGTGCTAG,0.679 z-score
TCAGCTTTGCTTCCTGCACTGTGCTAG,-0.512 z-score
GACGAACTAAGTTTCGAGACGTGCTAG,4.93 z-score
GACGATAACAGTTTCGAGACGTGCTAG,4.01 z-score
TTGGGACTGGGTCTCGGTTAGTGCTAG,0.614 z-score
GACGAACTGGGGTTTCGAGAAGTGCTA,0.369 z-score
TTAGATCTCAGTCTGGATTAGTGCTAG,-0.229 z-score
TTAGGTATCATTCTCCTTTAGTGCTAG,0.817 z-score
GACGGTTTCGGATTTCGGGACGTGCTA,10.7 z-score
TTAGGTATCGACAATCGGTTAGTGCTA,0.154 z-score
GACGGTTTCCTTCTCCTGATGTGCTAG,2.55 z-score
TTAGGACTGGATTTCGGTTAGTGCTAG,0.817 z-score
AGGGGACTGACTCTTCAGCACGTGCTA,-0.82 z-score
ATAGATTTCAGTTTCGATTAGTGCTAG,9.52 z-score
TTAGGTTTCGGTATCGGTTCGTGCTAG,10.8 z-score
GACGGTTCCTGTTTCGGGACGTGCTAG,2.96 z-score
TTAGATATCGGGATTCGATTAGTGCTA,1.19 z-score
TTAGATCTCAGACTGGATAAGTGCTAG,-0.107 z-score

# Series 5
# Target: Ras GTPase-activating protein-binding protein 1, RRM domain (G3BP1, Homo sapiens, UniProt Q13283)
# UniProt Q13283, sequence (whole entry, looked up): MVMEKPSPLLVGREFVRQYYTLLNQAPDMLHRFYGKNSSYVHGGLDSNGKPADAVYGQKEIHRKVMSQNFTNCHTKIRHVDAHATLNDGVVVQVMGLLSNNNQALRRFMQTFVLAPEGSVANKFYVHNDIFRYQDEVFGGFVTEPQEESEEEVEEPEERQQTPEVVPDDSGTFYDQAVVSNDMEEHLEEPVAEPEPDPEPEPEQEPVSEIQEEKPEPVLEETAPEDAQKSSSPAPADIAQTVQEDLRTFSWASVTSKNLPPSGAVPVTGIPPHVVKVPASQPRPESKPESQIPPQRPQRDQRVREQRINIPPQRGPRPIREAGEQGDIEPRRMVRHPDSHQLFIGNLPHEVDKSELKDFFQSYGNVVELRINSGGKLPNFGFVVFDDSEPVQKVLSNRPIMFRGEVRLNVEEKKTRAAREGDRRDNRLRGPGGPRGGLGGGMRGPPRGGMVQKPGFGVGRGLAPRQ
# Technique: RNA Bind-n-Seq
# Molecule type: RNA
# Medium: in vitro
# Concentration: 1 µM
# Setting: whole 134-nt RNA, ends assumed
# With: 150 mM KCl
# Relative to: input library
# Direction: higher = stronger binding
Oligonucleotide,log2 enrichment
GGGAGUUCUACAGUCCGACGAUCCACAGAGAACACGCACCCACACAGACACAGAGGGAAGGGGUUGGGAUGGGGACAGGGUGCACAGCAGGGCGGGGUAGGACCCCAGCCCCUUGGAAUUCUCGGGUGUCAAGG,0.0577
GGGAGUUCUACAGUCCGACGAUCUAACUUUAGUGGAGGAUCUGAUGGAUAUGGCAGUGGACGUGGAUUUGGGGAUGGCUAUAAUGGGUAUGGAGGAGGACCUGGAGGUGGCAAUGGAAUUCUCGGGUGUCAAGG,-0.7
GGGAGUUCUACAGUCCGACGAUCUAACUUAAGAGGAGGAUCUGAUGGAUAUGGCAGUGGACGUGGAUUUGGGGAUGGCUAUAAUGGGUAUGGAGGAGGACCUGGAGGUGGCAAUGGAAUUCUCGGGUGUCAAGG,-0.732
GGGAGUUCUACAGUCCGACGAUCCAAGUCCUGUGCUACACAUCGUAUGUACCGAAUCGGGGCCCGGGCCCGGGGCCCGGAAAGUAUUAUGUUACGCCGUUCGGAUCUGCACUUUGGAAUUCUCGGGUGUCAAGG,-1.07
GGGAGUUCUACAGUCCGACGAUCCUCAAGUCCUGUGCUACACAUCGUAUGUACCGAAUCGGUUUGGUUUUUGGAGGAAAGUAUUAUGUUACGCCGUUCGGAUCUGCACUUCCAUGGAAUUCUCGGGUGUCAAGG,-0.168
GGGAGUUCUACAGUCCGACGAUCAAGUCCUGUGCUACACAUCGUAUGUACCGAAUCGGGGUUUGGGGUGGGGAAAGGGGAAAGUAUUAUGUUACGCCGUUCGGAUCUGCACUUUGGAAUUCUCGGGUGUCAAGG,0.803
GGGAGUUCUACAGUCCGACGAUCCACAGACAACACGCACCCACACAGACACAGAGGGCAGGGGUUGGGAUGGGGACAGGGUGCACAGCAGGGCGGGGUAGGACCCCAGCCCCUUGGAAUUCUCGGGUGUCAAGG,-0.0812
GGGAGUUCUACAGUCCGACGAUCUAACUGUAGAGGAGGAUCUGAUGGAUAUGGCAGUGGACGUGGAUUUGGGGAUGGCUAUAAUGGGUAUGGAGGAGGACCUGGAGGUGGCAAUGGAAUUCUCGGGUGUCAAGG,-0.429
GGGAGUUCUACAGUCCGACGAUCGCAGGAAGUAAAAACAAAUGGAAAUGCUUCGGAUAGUGGCAGGGGUGGGGGUUGCUAAGGAAAGGUUGGGAUGGGAGUGGGUAAAGAGUUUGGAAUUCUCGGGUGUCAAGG,1.19
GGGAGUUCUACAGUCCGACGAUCAGUCCUGUGCUACACAUCGUAUGUACCGAAUCGGGUUUUUGGGUUUGGGAAAAAGGGAAAGUAUUAUGUUACGCCGUUCGGAUCUGCACUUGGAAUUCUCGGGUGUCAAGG,0.209
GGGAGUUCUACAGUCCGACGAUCGUCCUGUGCUACACAUCGUAUGUACCGAAUCGGGCCCCCGGGGCCCCCGGCCCCCGGGAAAGUAUUAUGUUACGCCGUUCGGAUCUGCACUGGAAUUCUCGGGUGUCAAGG,-0.605
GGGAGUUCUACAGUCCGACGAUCUCCUGUGCUACACAUCGUAUGUACCGAAUCGGGGAAAAAAAGGGGAAAGGGGUUUGGGGAAAGUAUUAUGUUACGCCGUUCGGAUCUGCAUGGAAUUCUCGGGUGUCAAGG,1.09
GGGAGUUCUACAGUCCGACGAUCGCAGGAAGUAAAAACAAAUGGAAAUGCUUCGGAAAAUGGCAGGGGUGGGGGUUGCUAAGGAAAGGGUGGGAUGGGAGUGGGUAAAGAGUUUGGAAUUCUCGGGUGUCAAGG,1.26
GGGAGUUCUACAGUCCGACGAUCAGUCCUGUGCUACACAUCGUAUGUACCGAAUCGGGGAAAAAGGAAAAAGGAAAAAGGAAAGUAUUAUGUUACGCCGUUCGGAUCUGCACUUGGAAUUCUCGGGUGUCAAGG,-0.036

# Other studies, line by line
Molecule,target,assay,test system,conditions,how to read,measurement,value
"PhoQ, residues 284 288 289 292 302 303 SSYNSA","PhoP, residues 12 14 15 18 19 SGWQI (Escherichia coli, UniProt P23836)","Sort-seq, measured: YFP reporter",E. coli,"PhoQ-PhoP variant library, with: 10 µM Mg2+","relative to: high Mg2+ state, higher = stronger signaling",fold induction,1.85

# Some of these lines once more (series 3):
Oligonucleotide,E-score
CGGAGTGA,-0.202
AATCTATC,0.113
ACTTTACA,0.13
CTTTTTTA,0.231
AAGGAGGT,-0.171
CATGCATA,0.226
